Published values collected from several papers.
Protocols differ between the studies behind these lines. ± marks the error that the study gave.
Target: Kappa-type opioid receptor (OPRK1, Homo sapiens, UniProt P41145)
Sequence of UniProt P41145 (whole entry, looked up): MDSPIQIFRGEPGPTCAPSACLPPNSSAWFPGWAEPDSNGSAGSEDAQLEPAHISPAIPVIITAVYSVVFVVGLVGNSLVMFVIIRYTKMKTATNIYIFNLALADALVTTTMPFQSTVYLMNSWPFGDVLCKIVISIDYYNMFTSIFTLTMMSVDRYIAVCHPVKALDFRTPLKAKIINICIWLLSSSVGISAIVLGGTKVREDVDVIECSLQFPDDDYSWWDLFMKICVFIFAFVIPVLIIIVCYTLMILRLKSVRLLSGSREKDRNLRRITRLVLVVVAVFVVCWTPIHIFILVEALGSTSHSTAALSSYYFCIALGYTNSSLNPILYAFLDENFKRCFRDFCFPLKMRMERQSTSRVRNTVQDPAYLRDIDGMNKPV

O=C(Cc1ccc(Cl)c(Cl)c1)N1CCNC2COCC(N3CCCC3)C21 (stereo not drawn) — Emax (agonist; 0.3333 h): 96%
CN1CC[C@]23c4c5ccc(O)c4C[C@H]2[C@@H](O)C=C[C@H]3[C@H]1C5 — Emax (receptor activation, agonist, cell-based): 76 ± 5%
O=C(Cc1cccc(Cl)c1)N1CCN[C@@H]2COC[C@H](N3CCCC3)[C@H]21 (relative stereo) — loss of binding affinity (concentration not given): 4 to 8 fold
Cc1cc(Nc2nc(C[C@@]3(C(=O)O)CCN(Cc4cccc(Cl)c4F)[C@H](C)C3)cc(C)c2F)[nH]n1 — activation (agonist; 10 µM): 0.23%
C/C(=N\OCCCN1CCCCC1)c1ccc(C(F)(F)F)cc1 — inhibition (antagonist, cAMP; 10 µM): 7.57%
CCc1nnc(-c2c(OC)cc(-c3cnc4cc(-c5cnn(C)c5)ccn34)cc2OC)o1 — inhibition (specific binding, agonist, radioligand binding; 10 µM; relative to: control specific binding): 6%
COc1ccc(F)cc1S(=O)(=O)Nc1cnc2c(c1)C(=O)NCCO2 — inhibition (ligand displacement, radioligand; 10 µM): -9%
CN(C)[C@H](CNC(=O)/C=C/c1cccc2ccccc12)Cc1ccc(O)cc1 — selectivity ratio (relative to: kappa over mu receptor): 11
C[C@H](NCc1ccc(-c2ccc(C(F)(F)F)cc2)cc1)C(N)=O — inhibition (radioligand binding, SafetyScreen panel; 1 µM, species human, added: 0.60 nM [3H]Diprenorphine): -1%
CN(C)[C@H]1COC[C@H]2NCCN(C(=O)Cc3ccc(Cl)c(Cl)c3)[C@@H]21 (relative stereo) — Emax (agonist; 0.3333 h): 71%
CN[C@@H]1[C@H](O)[C@H](NC)[C@H]2O[C@]3(O)[C@H](O[C@@H]2[C@H]1O)O[C@H](C)C[C@H]3NC(=O)Cc1cc(Cl)ccn1 — inhibition (ligand displacement, radioligand; 10 µM): 5%
Cc1cc(-c2ccc3ccccc3c2)nnc1NCCN1CCN(C)CC1 — activity (antagonist; 10000 nM; relative to: control): 4%

Excerpt of the above:
Cc1cc(Nc2nc(C[C@@]3(C(=O)O)CCN(Cc4cccc(Cl)c4F)[C@H](C)C3)cc(C)c2F)[nH]n1 — activation (agonist; 10 µM): 0.23%
